Measurements gathered from unrelated publications.
Every numbered part comes from another study and shows a few of its results, in no order.

Block 1 — method: protein-binding microarray; form: double-stranded DNA, one strand shown; medium: in vitro; concentration: 2200 nM top; notes: 60-bp whole probe; added: salmon DNA 0.4 mg/ml; baseline: random background probes; direction: higher = stronger binding; shared flanks, not repeated: GCCTAGCAC … GTCTTGATTCGCTTGACGCTGCTG
Target: Interferon regulatory factor 7, full length, phosphomimetic (IRF7, Homo sapiens, UniProt Q92985, residues 1-503, S471D/S472D/S475D/S476D/S477D/S483D/S484D/S487D)
Target sequence (chain): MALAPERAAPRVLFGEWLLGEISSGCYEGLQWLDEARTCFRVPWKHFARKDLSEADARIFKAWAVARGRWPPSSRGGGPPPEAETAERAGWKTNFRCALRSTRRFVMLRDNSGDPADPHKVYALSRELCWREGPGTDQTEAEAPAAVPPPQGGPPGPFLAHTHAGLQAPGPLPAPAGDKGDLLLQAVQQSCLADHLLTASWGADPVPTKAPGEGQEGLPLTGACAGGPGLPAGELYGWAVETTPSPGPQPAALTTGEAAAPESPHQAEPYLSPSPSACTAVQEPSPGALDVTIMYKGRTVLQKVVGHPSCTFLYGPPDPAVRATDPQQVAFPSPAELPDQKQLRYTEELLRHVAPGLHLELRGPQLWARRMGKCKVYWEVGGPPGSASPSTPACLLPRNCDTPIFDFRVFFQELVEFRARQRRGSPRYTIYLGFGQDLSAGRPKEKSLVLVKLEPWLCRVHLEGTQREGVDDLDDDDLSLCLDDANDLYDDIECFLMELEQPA
Oligonucleotide	fitted relative affinity [z-score]
GGCGATATCGGGTTTCGAGACGTGCTA	1.09
ACTCGTGTTTTTCTCCTATTGTGCTAG	2.74
GTCGATTTCAGTATCGAGACGTGCTAG	1.52
GACGATCTCAGTATCGAGAAGTGCTAG	-0.0247
GACGGTATCGGGTATCGTGACGTGCTA	0.0837
GGTATTATTTATTGTAGCCTCGTGCTA	0.405
GACGGACTGGACTAGCGGGACGTGCTA	-1.04
TTAGTTTTCGACACTGGGTTAGTGCTA	2.91
GACAGTTTCCTTATCCTGACGTGCTAG	3.32
GACGGTCTCGGTTTCGGGCCGTGCTAG	2.94
GACGGTATCCTTATCCTGCCGTGCTAG	0.687
TTAGAACTGGGTTTCGGTTAGTGCTAG	4.14
GGCGATCTCAGACTGGAGACGTGCTAG	-0.67
TCACTCGTGTTTTTCTCACTGTGCTAG	1.98
TCAACTAGCGGGTCTTGCACTGTGCTA	-0.224
TCAGCTTTCTTTACCACACTGTGCTAG	1.61
TTAGGTATCGGCTTCGGTTAGTGCTAG	0.709
GGAGGCCTCTTCATTCATTAAGTGCTA	-0.522

Block 2 — method: universal PBM; form: double-stranded DNA, one strand shown; medium: in vitro; concentration: not given; direction: higher = stronger binding
Target: Sal-like protein 4, full length isoform B (SALL4, Homo sapiens, UniProt Q9UJQ4-2, residues 1-616)
Notes: 8-mer, flanks averaged, mean of replicates
Target sequence (chain): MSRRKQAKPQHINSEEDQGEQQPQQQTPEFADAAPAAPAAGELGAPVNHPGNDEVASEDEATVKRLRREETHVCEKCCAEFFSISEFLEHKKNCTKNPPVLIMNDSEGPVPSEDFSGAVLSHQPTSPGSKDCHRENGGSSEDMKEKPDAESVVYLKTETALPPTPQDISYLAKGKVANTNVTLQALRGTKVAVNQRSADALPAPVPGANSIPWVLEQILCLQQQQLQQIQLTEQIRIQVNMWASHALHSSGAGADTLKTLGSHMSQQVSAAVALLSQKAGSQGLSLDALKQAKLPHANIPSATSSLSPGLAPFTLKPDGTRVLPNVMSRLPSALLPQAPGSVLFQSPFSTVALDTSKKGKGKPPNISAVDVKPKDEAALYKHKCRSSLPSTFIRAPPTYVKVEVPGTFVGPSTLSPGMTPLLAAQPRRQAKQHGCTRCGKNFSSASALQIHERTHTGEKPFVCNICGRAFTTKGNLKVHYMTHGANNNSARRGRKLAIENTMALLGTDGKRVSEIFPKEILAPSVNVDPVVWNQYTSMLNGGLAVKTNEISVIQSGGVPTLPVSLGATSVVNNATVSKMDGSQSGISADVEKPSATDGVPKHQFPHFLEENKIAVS
Oligonucleotide	E-score
GTTAGATA	0.227
ACTTCGAG	-0.00337
CCTCGACC	-0.134
AGCTATCC	-0.177
ATATCTTC	0.273
AACTTCGT	-0.0725
ACTGCTAC	0.0516
AACACGGG	-0.197
AACTTGAG	-0.147
ATGCTGCG	-0.131
CGGAGTCC	-0.221
GCAGTCCA	-0.0884
CTTCTCGC	-0.0367
CGGGTACA	-0.177
ATAAACCG	0.0827
AGGGGGGG	-0.335
ATCGGATA	0.149
CATGTACG	0.0748
CTCCCGAG	-0.358
CGCCAAGA	-0.19
AGTGTGAC	0.0321
AACAAACT	0.129
GTGAAGAA	0.0518
GGACCCTA	-0.243
GCGAACAC	-0.22

Block 3 — method: protein binding microarray; form: double-stranded DNA, one strand shown; medium: in vitro; concentration: not given; baseline: not given; direction: higher = stronger binding
Target: Histone acetyltransferase KAT6A, both winged helices, GST fusion (KAT6A, Homo sapiens, UniProt Q92794, residues 1-181)
Notes: 8-mer, flanks averaged, mean of 2 arrays, mostly near background
Target sequence (chain): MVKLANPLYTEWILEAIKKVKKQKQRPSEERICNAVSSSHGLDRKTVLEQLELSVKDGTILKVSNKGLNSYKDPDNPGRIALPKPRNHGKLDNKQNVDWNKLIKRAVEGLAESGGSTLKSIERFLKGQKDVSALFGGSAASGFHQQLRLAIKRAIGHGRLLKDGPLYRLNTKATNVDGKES
Oligonucleotide	E-score
ATGATTCG	-0.0417
CCGGCACG	0.221
CCCACAAG	-0.0709
ATGCTGCG	0.0524
GGTGCTAC	-0.0524
GGCATATA	0.0587
AGATCATG	-0.0658
ATAAGTAA	-0.0254
ATTGCCCA	-0.0998
AAATGGGG	-0.326
CTACCGGC	0.209
CGAGTTTA	0.051
AGCGTCCA	0.056
AGGCAACT	-0.11
CGGTCAAC	0.181
AATTAGCC	0.0117
AAATTGTA	-0.0536
CAAGCATG	-0.127
CTAGATGA	-0.138
CCGAGAGC	0.0665
AATTGTGG	-0.181
AAATAACA	0.0909
GTTCACGA	-0.00045
GACGGCCC	0.266

Block 4 — method: RNA Bind-n-Seq; form: RNA; medium: in vitro; concentration: 365 nM; baseline: no-protein control; direction: higher = stronger binding
Target: RNA binding protein fox-1 homolog 2, RRM domain, GST-SBP tag (RBFOX2, Homo sapiens, UniProt O43251-10, residues 100-194)
Notes: natural RNA segment, single round, ends assumed
Construct (chain): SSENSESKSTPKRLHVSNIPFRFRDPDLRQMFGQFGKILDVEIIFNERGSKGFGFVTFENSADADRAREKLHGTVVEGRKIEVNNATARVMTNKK
Oligonucleotide	RBNS enrichment (R)
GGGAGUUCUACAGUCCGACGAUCCCAGCAUGCCGAGCACAAUGUCCACCCACUUGUGCUGUGUAGACUGUUGCAUACAGCUGAGUACAGUGAGCGGCUUCUGCACAUAUUUAACUCUCCCUAUAUAUUAACUCUGGAAUUCUCGGGUGCCAA	5.37
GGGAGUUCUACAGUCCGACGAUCAAAUCACUUUUUAAUAUUUUUUGGUUGGUUAUUUCCCAAAUAAUCAACAUGUAAAUAAUCUUUUAAGAGCCAGUUCUGAUGCUUUACAUUAUUGCUACUUGAUUUUGUUAUGGAAUUCUCGGGUGCCAA	0.525
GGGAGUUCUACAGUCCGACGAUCACCGCGGGGCGGGGAGCGUGUGGCUGUGCCCCUUCUCUUUAAUCUCAUUUAAUUUUUAUUAAACAUGCUCAGUACCUGUGUUGAGAAAAGGCUUUCUUUAUCCUAAAGAUUGGAAUUCUCGGGUGCCAA	0.539
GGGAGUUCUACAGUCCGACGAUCAACGUACAGGCCAUCAAGACUAUUUAUUUAAAUACAAAAAAAGGGGAAAACACACACACGGAAAAAAAAUUGUAAGCACUUUUUUUGUAAAACCAAUGUCUGUUUUGUUAUGGAAUUCUCGGGUGCCAA	0.713
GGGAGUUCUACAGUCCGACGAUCAUGCUUCUGUAUUUCACUCUUUCUCCCUAUUAGGGAGUUAUGCAAAAUUUGUCCCCGAUUUUACCUUUGUCUUUCUGUGUACUUUUCAAAGAGUCCUAAGGAGUUAAAUCUGGAAUUCUCGGGUGCCAA	0.239
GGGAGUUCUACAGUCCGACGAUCCUGUAAUCCUUAAACUCGAUGUGGUAAGUAGGAAGCAAGAAUUUAUCCUGUGUUUUCAGGCAGCAGUAUGCUUACUUUAAUCUCAUUCGUUCUGUGGCUAGGAUUGCUAGUGGAAUUCUCGGGUGCCAA	0.276
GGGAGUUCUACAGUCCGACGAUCGUCCCUGCUCACUUCCAGUCAGGUCUCAGCUCCACCCCACUGUUUCUUGGUCAGCCUCAGUGAUGGCCUGACCCCAGCUGUGAGGCCUUGUGAGCUAAGGCUGAAGAGACUGGAAUUCUCGGGUGCCAA	0.336
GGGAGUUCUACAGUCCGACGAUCAGCAAAAGUUGGGGAGAGGAUUUUGUUGUUUGCCUAGACUAGUCCUGAGGGAAGAAACACCACGUCACAGUCACGAUGUCUGCCUUACUGGCUUCCCCAGGGAAGGAAAAUGGAAUUCUCGGGUGCCAA	0.694

Some of these lines once more (block 4):
Oligonucleotide	RBNS enrichment (R)
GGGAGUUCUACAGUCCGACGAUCAUGCUUCUGUAUUUCACUCUUUCUCCCUAUUAGGGAGUUAUGCAAAAUUUGUCCCCGAUUUUACCUUUGUCUUUCUGUGUACUUUUCAAAGAGUCCUAAGGAGUUAAAUCUGGAAUUCUCGGGUGCCAA	0.239
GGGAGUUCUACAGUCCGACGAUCCUGUAAUCCUUAAACUCGAUGUGGUAAGUAGGAAGCAAGAAUUUAUCCUGUGUUUUCAGGCAGCAGUAUGCUUACUUUAAUCUCAUUCGUUCUGUGGCUAGGAUUGCUAGUGGAAUUCUCGGGUGCCAA	0.276
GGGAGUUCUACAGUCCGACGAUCACCGCGGGGCGGGGAGCGUGUGGCUGUGCCCCUUCUCUUUAAUCUCAUUUAAUUUUUAUUAAACAUGCUCAGUACCUGUGUUGAGAAAAGGCUUUCUUUAUCCUAAAGAUUGGAAUUCUCGGGUGCCAA	0.539
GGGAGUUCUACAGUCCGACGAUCCCAGCAUGCCGAGCACAAUGUCCACCCACUUGUGCUGUGUAGACUGUUGCAUACAGCUGAGUACAGUGAGCGGCUUCUGCACAUAUUUAACUCUCCCUAUAUAUUAACUCUGGAAUUCUCGGGUGCCAA	5.37
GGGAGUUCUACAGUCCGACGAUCGUCCCUGCUCACUUCCAGUCAGGUCUCAGCUCCACCCCACUGUUUCUUGGUCAGCCUCAGUGAUGGCCUGACCCCAGCUGUGAGGCCUUGUGAGCUAAGGCUGAAGAGACUGGAAUUCUCGGGUGCCAA	0.336
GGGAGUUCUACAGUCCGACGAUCAGCAAAAGUUGGGGAGAGGAUUUUGUUGUUUGCCUAGACUAGUCCUGAGGGAAGAAACACCACGUCACAGUCACGAUGUCUGCCUUACUGGCUUCCCCAGGGAAGGAAAAUGGAAUUCUCGGGUGCCAA	0.694
